# Measurements gathered from unrelated publications.
# A part holds a random share of what one study measured.

# Series 1
# Target: Interferon regulatory factor 5, full length, phosphomimetic (IRF5, Homo sapiens, UniProt Q13568-2, residues 1-514, K96S/S451D/S453D/S456D/S462D)
# Technique: protein-binding microarray
# Molecule type: double-stranded DNA, one strand shown
# Medium: in vitro
# Concentration: 250 nM
# Setting: 60-bp whole probe
# Added: salmon DNA 0.4 mg/ml
# Reference: random background probes
# Reading: higher = stronger binding
# Constant ends, left off below: GCCTAGCAC … GTCTTGATTCGCTTGACGCTGCTG
Oligonucleotide,log fluorescence [z-score]
GACGATTTCGGGTATCGAGAGGTGCTA,4.92
TTAGCTTTCCTTTTCCTTTAGTGCTAG,2.02
TTAGGTATCTGTATCGGTTAGTGCTAG,5.96
GACGGTATCCTTCTCCTAACGTGCTAG,0.295
TTAGGTTTCGGGTTTCTGTTAGTGCTA,8.71
GACGGTTTCGGTGCCGGGACGTGCTAG,8.08
GACGGTCTCGGTATCGGGAGGTGCTAG,1.15

# Series 2
# Target: Histone acetyltransferase KAT6A, winged helix 1, GST fusion (KAT6A, Homo sapiens, UniProt Q92794, residues 1-85)
# Technique: protein binding microarray
# Molecule type: double-stranded DNA, one strand shown
# Medium: in vitro
# Concentration: not given
# Setting: 8-mer, flanks averaged, mean of 2 arrays, mostly near background
# Reference: not given
# Reading: higher = stronger binding
# Residues (chain): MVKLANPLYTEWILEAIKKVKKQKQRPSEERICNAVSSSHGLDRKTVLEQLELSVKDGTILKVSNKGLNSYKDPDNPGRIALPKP
Oligonucleotide,E-score
AGTAGAAA,-0.144
AATACCTA,-0.193
ATGATCCA,-0.0657
GGGCTTAC,0.0831
AGTATTCC,-0.0545
AACGCAAT,0.239
CACTAAGC,-0.172
ACCACACG,-0.0488

# Series 3
# Target: RNA binding protein fox-1 homolog 2, RRM domain, GST-SBP tag (RBFOX2, Homo sapiens, UniProt O43251-10, residues 100-194)
# Technique: RNA Bind-n-Seq
# Molecule type: RNA
# Medium: in vitro
# Concentration: 365 nM
# Setting: natural RNA segment, single round, ends assumed
# Reference: no-protein control
# Reading: higher = stronger binding
# Residues (chain): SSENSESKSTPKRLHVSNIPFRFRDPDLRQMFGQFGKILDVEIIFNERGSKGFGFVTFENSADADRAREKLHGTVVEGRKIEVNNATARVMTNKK
Oligonucleotide,RBNS enrichment (R)
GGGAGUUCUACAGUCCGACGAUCUGGAAUGCAGUGUGCUUUUUGAGACACUAGGGGGAGCCUGGUAUUAACUAAACAGCUUGCCAUUCAACAGUCUCAGGAGGGUUCUUGUACUAAACAGAUGGGGGUUCACUUGGAAUUCUCGGGUGCCAA,0.368
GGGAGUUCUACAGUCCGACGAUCUUAAGCACUAAAAAUUUUUUCAUAACCUUUCAUAAUAAAGUUUAAUAAUAGGUUUAUUAACUGAAUUUCAUUAGUUUUUUAAAAGUGUUUUUGGUUUGUGUAUAUAUACAUGGAAUUCUCGGGUGCCAA,0.798
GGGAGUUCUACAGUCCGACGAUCGGGACAGAUGUUCUGAACCUGGACCACAGGCCUUCCUGCUAGGCUUGCAGCCCACGGUGCACAUCUGCGCACACCCUCACUGAGGACUGAGUGCUGUUGGUACACGGAGCUGGAAUUCUCGGGUGCCAA,0.263
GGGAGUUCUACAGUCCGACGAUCAUUAAAGUAGGAGAAAGAAUGUGCUGAGUGUUUUCCUCCCUUUGCCUCUACCUGGCCCUCAUCCCAACAGCCCAGCAAGGGGAGAGAGAAAGAGAAUUCUUUUCUAUAGAUGGAAUUCUCGGGUGCCAA,0.881
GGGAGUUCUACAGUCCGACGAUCUUCCUUUUCUACCCUUUCUAGUUCAUUUUCCAAGGUAGCUGUGAUAAAGCAUGACAUAAAAGCCCAAUUCAGAUCCUACUAAUAAAACAAGCUCCAAUGUAUUAUGGAAAUGGAAUUCUCGGGUGCCAA,1.49

# Mixed results
Substance,target,test,test system,setting,scale,endpoint,result
"PhoQ, residues 284 288 289 292 302 303 ASVMEA","PhoP, residues 12 14 15 18 19 SMASL (Escherichia coli, UniProt P23836)","Sort-seq, measured: YFP reporter",E. coli,"PhoQ-PhoP variant library, added: 10 µM Mg2+","reference: high Mg2+ state, higher = stronger signaling",fold induction,3.11

# Some of these lines once more (series 2):
Oligonucleotide,E-score
CACTAAGC,-0.172
GGGCTTAC,0.0831
